Experimental data of several laboratories.
Each numbered part is a random draw from the data of one study; scales do not carry over between parts.
Sequence of UniProt P11802 (whole entry, looked up): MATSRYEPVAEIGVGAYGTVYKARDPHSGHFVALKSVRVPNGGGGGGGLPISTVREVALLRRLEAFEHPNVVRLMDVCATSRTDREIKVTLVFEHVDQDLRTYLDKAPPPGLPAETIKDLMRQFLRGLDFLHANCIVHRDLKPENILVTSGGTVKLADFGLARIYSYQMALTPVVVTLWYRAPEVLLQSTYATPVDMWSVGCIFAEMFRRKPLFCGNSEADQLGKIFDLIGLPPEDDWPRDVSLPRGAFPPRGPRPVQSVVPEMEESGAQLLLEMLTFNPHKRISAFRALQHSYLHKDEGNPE
Sequence of UniProt P07332 (whole entry, looked up): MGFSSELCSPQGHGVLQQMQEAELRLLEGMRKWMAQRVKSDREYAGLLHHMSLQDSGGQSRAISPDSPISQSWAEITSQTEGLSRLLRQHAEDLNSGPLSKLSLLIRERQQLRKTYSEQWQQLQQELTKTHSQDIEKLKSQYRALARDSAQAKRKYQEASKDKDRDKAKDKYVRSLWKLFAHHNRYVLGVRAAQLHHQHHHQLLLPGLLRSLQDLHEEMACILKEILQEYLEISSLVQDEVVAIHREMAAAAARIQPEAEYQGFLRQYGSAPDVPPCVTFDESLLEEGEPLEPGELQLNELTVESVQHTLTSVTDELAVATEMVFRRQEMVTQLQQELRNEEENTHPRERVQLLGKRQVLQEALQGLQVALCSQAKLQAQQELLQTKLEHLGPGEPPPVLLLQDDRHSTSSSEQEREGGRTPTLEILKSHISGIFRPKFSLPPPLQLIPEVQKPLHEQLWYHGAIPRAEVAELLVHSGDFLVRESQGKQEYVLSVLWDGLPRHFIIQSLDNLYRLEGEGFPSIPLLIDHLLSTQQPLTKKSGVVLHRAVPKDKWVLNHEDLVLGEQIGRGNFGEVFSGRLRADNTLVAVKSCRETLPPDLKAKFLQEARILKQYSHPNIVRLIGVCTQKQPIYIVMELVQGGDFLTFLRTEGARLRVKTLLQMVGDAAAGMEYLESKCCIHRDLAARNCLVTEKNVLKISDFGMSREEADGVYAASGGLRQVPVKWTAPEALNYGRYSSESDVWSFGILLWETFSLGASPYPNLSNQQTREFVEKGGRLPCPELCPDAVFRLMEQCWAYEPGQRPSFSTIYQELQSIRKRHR
Sequence of UniProt P30291 (whole entry, looked up): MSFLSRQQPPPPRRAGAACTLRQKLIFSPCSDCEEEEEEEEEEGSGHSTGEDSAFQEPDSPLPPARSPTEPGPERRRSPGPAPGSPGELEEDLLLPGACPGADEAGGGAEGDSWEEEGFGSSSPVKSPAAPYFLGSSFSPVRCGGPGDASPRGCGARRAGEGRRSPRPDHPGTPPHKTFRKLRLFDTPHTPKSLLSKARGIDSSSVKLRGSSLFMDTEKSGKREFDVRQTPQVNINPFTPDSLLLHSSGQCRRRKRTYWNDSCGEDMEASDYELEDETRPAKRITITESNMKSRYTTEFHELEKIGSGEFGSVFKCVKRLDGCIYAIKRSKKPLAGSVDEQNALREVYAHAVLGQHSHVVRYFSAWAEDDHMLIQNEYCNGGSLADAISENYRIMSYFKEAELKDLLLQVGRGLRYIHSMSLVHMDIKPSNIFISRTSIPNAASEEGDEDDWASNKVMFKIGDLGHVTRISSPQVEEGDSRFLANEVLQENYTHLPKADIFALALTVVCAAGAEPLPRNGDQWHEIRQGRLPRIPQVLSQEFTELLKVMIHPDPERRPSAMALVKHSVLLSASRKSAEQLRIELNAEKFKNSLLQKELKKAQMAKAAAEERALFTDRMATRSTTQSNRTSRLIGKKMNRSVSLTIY
Sequence of UniProt P45985 (whole entry, looked up): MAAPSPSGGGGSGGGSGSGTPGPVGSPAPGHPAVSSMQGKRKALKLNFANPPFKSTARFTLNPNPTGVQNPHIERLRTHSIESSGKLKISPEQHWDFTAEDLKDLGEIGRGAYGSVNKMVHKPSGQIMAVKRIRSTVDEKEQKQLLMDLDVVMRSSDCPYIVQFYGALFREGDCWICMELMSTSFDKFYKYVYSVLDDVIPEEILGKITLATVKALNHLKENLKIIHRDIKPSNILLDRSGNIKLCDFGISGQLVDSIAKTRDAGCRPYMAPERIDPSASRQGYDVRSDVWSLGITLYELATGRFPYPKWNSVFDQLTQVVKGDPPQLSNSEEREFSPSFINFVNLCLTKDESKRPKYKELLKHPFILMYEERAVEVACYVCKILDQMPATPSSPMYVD
Sequence of UniProt Q15835 (whole entry, looked up): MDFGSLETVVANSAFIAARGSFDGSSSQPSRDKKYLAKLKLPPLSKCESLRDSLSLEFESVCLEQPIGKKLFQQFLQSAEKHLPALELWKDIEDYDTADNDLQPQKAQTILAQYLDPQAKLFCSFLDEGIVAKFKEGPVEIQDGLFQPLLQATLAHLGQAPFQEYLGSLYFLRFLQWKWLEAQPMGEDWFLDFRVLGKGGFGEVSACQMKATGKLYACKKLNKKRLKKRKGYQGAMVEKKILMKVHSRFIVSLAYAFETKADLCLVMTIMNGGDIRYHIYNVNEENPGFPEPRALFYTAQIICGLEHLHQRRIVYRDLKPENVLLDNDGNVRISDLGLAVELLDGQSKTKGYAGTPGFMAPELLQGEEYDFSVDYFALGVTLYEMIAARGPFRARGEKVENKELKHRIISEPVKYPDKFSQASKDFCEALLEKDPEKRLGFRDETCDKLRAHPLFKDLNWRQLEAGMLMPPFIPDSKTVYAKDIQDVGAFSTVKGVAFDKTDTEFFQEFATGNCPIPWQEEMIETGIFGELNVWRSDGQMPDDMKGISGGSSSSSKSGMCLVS
Sequence of UniProt Q13153 (whole entry, looked up): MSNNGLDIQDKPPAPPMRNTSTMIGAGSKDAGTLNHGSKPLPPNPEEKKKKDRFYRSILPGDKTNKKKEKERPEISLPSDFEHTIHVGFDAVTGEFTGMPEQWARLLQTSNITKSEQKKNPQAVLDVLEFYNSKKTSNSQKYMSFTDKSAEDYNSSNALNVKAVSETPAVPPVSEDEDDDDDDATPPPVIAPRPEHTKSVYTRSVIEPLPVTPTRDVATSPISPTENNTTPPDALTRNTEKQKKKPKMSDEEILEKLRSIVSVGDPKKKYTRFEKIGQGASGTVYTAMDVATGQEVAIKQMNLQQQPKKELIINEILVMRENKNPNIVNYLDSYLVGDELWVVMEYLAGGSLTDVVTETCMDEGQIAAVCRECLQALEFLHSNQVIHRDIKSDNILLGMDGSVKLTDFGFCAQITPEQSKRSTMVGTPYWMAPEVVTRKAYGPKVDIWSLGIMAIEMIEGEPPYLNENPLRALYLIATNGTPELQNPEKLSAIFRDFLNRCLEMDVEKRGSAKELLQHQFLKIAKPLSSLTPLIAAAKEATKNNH
Sequence of UniProt Q04771 (whole entry, looked up): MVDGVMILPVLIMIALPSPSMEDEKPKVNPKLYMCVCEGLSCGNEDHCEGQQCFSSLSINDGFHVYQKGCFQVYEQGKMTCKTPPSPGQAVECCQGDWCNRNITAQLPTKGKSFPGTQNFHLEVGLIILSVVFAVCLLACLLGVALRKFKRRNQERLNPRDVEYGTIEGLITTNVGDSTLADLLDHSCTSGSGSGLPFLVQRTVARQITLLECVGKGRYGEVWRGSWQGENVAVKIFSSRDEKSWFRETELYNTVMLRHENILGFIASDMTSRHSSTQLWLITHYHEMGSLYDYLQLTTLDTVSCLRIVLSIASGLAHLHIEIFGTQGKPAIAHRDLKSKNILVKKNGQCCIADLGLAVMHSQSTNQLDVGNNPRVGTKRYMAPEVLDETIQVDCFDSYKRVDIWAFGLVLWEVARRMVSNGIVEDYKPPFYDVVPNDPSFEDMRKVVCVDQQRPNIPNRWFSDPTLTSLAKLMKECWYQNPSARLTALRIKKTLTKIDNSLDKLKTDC
Sequence of UniProt O75676 (whole entry, looked up): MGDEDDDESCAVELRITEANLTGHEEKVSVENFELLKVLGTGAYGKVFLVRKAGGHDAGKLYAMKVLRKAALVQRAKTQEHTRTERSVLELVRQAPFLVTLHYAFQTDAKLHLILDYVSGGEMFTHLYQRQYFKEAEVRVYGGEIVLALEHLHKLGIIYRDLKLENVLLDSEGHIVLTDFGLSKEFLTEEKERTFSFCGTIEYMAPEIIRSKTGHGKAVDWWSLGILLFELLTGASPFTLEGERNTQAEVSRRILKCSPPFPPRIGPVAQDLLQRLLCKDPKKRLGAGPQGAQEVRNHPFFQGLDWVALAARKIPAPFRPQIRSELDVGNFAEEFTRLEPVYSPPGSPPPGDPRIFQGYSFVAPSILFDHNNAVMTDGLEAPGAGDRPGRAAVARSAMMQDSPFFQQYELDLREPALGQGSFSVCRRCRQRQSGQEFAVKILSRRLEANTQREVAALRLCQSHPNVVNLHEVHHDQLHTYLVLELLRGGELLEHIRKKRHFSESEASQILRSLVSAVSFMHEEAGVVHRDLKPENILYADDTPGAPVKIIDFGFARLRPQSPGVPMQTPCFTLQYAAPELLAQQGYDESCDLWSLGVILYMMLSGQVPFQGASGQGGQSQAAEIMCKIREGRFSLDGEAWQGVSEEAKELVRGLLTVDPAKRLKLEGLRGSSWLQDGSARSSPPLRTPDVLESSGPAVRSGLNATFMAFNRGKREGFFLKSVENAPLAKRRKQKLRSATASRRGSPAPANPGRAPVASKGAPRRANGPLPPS

Series 1 — species: mouse; sample: microsomes or S9; concentration: 2 µM; time: 0.5 h
Compound | remaining compound
Cc1ccc(-c2noc3c(N(C)Cc4ccccc4)ncnc23)cc1 | 3.6%
Cc1c(C(=O)Nc2ccc3c(c2)NC(=O)C(C)O3)oc2ccc(F)cc12 (stereo not drawn) | < 1%
O=C(C(F)CC1CCCCC1)N1CCC(N2CCCCC2=O)CC1 (stereo not drawn) | 0.581%
O=C(Nc1ccc2c(c1)COC2=O)c1ccc(Cl)c(Cl)c1 | > 99%
O=c1ccc2cnc(N[C@H]3CC[C@H](O)CC3)nc2n1C1CCCCC1 | 32.6%
N#Cc1cccc(COc2cccnc2Nc2nc3cc(F)ccc3[nH]2)c1 | 35.1%
Cn1c(=O)c2sc3c(c2n(CCN2CCCCC2)c1=O)CCCC3 | 9.3%
COc1c(-c2coc3cc4c(cc3c2=O)CC(OC(C)=O)C(C)(C)O4)ccc2c1C=CC(C)(C)O2 (stereo not drawn) | 0.619%

Series 2 — effect on: cell-free assay; method: competition with immobilised ligand; concentration: 1 µM
SMILES: C[C@@H](c1cccc(C#N)c1)n1cc(Cl)cc(C(N)=O)c1=N
target | remaining binding [%]
Cyclin-dependent kinase 4, with cyclin D3 (CDK4, Homo sapiens, UniProt P11802) | 91
Epidermal growth factor receptor (EGFR, Homo sapiens, UniProt P00533, del752-759) | 100
Tyrosine-protein kinase Fes/Fps (FES, Homo sapiens, UniProt P07332) | 77
Mitogen-activated protein kinase kinase kinase 5 (MAP3K5, Homo sapiens, UniProt Q99683) | 100
Ribosomal protein S6 kinase alpha-1, N-terminal kinase domain (RPS6KA1, Homo sapiens, UniProt Q15418) | 100
Dual specificity mitogen-activated protein kinase kinase 4 (MAP2K4, Homo sapiens, UniProt P45985) | 82
Hepatocyte growth factor receptor (MET, Homo sapiens, UniProt P08581) | 93
Rhodopsin kinase GRK1 (GRK1, Homo sapiens, UniProt Q15835) | 75
Ribosomal protein S6 kinase alpha-4, C-terminal kinase domain (RPS6KA4, Homo sapiens, UniProt O75676) | 80
Serine/threonine-protein kinase PAK 1 (PAK1, Homo sapiens, UniProt Q13153) | 100
Wee1-like protein kinase (WEE1, Homo sapiens, UniProt P30291) | 100
Activin receptor type-1 (ACVR1, Homo sapiens, UniProt Q04771) | 96
Tyrosine-protein kinase ABL1, phosphorylated (ABL1, Homo sapiens, UniProt P00519, T315I) | 0
Fibroblast growth factor receptor 2 (FGFR2, Homo sapiens, UniProt P21802) | 67
Proto-oncogene tyrosine-protein kinase ROS (ROS1, Homo sapiens, UniProt P08922) | 100

Series 3 — organism: Sarcocystis neurona; effect on: parasite activity; concentration: 10 µM; time: 96 h
SMILES | activity class
O=C(O)Cc1ccccc1Nc1c(Cl)cccc1Cl | inactive
C[N+]1(C)CCC(OC(=O)C(O)(c2ccccc2)C2CCCC2)C1 (stereo not drawn) | inactive
C[C@H]1O[C@@H](O[C@H]2[C@@H](O)C[C@H](O[C@H]3[C@@H](O)C[C@H](O[C@H]4CC[C@@]5(C)[C@H](CC[C@@H]6[C@@H]5C[C@@H](O)[C@]5(C)[C@@H](C7=CC(=O)OC7)CC[C@]65O)C4)O[C@@H]3C)O[C@@H]2C)C[C@H](O)[C@@H]1O | inactive
C=C1/C(=C\C=C2/CCC[C@]3(C)[C@@H]([C@H](C)/C=C/[C@@H](O)C4CC4)CC[C@@H]23)C[C@@H](O)C[C@@H]1O | inactive
CCCSc1ccc2nc(NC(=O)OC)[nH]c2c1 | inactive
CN(CCOc1ccc(CC2SC(=O)NC2=O)cc1)c1ccccn1 (stereo not drawn) | inactive
C[C@@H]1C[C@H]2[C@@H]3CCC4=CC(=O)C=C[C@]4(C)[C@@]3(F)[C@@H](O)C[C@]2(C)[C@H]1C(=O)CO | inactive
Nc1nc(=O)c2nc(CNc3ccc(C(=O)N[C@@H](CCC(=O)O)C(=O)O)cc3)cnc2[nH]1 | inactive

Series 4 — effect on: enzyme activity; mode: inhibitor; concentration: 0.5 µM; baseline: control
Target: Aurora kinase B (AURKB, Homo sapiens, UniProt Q96GD4)
Sequence of UniProt Q96GD4 (whole entry, looked up): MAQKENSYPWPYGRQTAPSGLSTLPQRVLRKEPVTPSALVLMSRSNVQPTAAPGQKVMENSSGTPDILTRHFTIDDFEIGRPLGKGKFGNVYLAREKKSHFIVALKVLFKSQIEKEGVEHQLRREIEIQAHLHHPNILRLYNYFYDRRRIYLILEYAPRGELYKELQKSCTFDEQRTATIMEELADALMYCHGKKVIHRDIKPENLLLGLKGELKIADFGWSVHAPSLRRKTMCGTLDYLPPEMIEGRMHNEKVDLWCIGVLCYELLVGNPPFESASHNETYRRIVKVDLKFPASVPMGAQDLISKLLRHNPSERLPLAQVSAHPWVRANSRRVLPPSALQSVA
Compound | remaining activity [%]
O=C1NC(=O)c2c1c1c3ccccc3[nH]c1c1[nH]c3cc(Br)ccc3c21 | 44.3
O=c1cc(N2CCOCC2)oc2c(-c3ccccc3)cccc12 | 99.6
CN1CCN(c2ccc3nc(-c4c(N)c5c(F)cccc5[nH]c4=O)[nH]c3c2)CC1 | 27
CCCCc1c(-c2ccc(OC)cc2)[nH]c2nccnc12 | 64.5
Oc1cccc(-c2nc(N3CCOCC3)c3oc4ncccc4c3n2)c1 | 99.4
O=C1Nc2ccc(Br)cc2/C1=C/c1cc2c([nH]1)CCCC2 | 56.7
Cc1ccc(S(=O)(=O)/C=C/C#N)cc1 | 92.3
CCCNC(=O)Nc1ccc(Oc2ncnc3cc(OC)c(OC)cc23)cc1Cl | 37

Repeated from above (series 2):
target | remaining binding [%]
Serine/threonine-protein kinase PAK 1 (PAK1, Homo sapiens, UniProt Q13153) | 100
Wee1-like protein kinase (WEE1, Homo sapiens, UniProt P30291) | 100
Activin receptor type-1 (ACVR1, Homo sapiens, UniProt Q04771) | 96
